Results of several laboratories.
Lines come from different studies, so protocols differ. ± marks the error that the study gave. Non-standard residues stand in square brackets, D forms with d. Square brackets hold non-standard residues; d marks the D form. Where no end group is shown, it is not given here. Ends that are not written are not given here. No end group written: not given here. * marks the point of attachment. *: point of attachment.
ERBB2: ERBB2 fragment (Homo sapiens)
T1: STAG2/RAD21 STAG2 80-1060, RAD21 281-420 (Homo sapiens); chain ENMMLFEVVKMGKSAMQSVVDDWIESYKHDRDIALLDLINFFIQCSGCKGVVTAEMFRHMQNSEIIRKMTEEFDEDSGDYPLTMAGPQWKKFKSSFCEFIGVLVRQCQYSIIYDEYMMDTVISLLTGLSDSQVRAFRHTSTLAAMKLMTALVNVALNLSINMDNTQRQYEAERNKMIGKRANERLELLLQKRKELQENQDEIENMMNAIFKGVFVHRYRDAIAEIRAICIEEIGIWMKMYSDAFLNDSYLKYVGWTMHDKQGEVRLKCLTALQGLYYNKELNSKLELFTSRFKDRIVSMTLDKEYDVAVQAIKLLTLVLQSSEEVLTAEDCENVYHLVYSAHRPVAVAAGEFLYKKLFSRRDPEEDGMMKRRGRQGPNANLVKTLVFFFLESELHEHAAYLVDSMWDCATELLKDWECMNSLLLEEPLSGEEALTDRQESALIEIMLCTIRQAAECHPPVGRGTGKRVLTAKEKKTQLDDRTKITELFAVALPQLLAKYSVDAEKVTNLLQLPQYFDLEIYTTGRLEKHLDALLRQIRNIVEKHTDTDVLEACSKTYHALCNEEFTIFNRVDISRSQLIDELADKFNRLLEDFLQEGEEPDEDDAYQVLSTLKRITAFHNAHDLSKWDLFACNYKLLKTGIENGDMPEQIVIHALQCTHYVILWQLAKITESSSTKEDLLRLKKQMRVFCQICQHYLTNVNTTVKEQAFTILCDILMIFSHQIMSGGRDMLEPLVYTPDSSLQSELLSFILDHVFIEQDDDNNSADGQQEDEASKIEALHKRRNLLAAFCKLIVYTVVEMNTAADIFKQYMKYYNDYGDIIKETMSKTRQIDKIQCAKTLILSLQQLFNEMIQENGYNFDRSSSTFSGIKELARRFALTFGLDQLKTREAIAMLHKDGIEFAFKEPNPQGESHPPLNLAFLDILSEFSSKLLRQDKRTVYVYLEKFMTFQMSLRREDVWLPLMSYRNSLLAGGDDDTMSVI; chain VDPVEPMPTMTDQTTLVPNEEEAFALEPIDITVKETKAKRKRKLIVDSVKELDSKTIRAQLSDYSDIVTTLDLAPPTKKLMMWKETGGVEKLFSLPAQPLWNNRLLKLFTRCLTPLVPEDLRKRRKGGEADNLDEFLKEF
B1: PHB2 (Plasmodium falciparum, UniProt Q8IJP8); chain MYKFKFKLRNIYKIHFKPYINMNAPPNFDIHQVKKLGKLGATIGAIIGVTSFGSWFFKNSLYNVEAGKRAIKYNRIFGLSNKIYGEGTHFLIPFFERSIIYDVRTKPRVLMSLTGSRDLQMVNITCRVLSRPNEKKLVEIYRTLGKEYDEKVLPSIINEVLKSVVAQYNASQLITQREVVSKSVREQLVQRAKDFNILLDDASITHLSFSNEYEKAVEAKQVAQQEAERSKYVVLKAEQEKKSTIIKAQGEAEVAKLIGLAVKDNPAFMELKKIELSREVSNIISKCQNKVMLPTDSLLINFTK
UniProt O15392, sequence (whole entry, looked up): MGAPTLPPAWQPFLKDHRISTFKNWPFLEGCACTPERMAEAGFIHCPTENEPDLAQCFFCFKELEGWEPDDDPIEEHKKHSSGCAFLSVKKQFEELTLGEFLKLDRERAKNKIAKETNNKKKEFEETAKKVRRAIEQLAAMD
UniProt P11021, sequence (whole entry, looked up): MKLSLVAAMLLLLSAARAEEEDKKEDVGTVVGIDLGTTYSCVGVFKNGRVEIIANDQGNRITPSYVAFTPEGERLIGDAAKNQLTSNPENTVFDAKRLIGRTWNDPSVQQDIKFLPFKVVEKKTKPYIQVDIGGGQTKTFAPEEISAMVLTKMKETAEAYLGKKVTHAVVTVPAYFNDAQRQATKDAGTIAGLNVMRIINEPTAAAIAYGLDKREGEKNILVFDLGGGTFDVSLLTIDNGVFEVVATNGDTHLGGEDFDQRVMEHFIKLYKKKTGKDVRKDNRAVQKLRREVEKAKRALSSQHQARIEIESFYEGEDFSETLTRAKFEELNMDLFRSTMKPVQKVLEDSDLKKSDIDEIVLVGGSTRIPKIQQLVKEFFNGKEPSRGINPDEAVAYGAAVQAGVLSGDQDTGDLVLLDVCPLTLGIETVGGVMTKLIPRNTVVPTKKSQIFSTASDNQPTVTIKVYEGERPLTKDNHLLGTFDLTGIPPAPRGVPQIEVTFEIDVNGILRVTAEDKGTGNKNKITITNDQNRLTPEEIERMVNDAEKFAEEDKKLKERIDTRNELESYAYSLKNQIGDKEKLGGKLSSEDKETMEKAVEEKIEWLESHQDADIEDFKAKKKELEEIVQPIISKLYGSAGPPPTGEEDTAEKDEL
UniProt P25063, sequence (whole entry, looked up): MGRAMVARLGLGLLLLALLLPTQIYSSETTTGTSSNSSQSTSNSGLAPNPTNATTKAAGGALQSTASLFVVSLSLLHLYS
UniProt P0DMV8, sequence (whole entry, looked up): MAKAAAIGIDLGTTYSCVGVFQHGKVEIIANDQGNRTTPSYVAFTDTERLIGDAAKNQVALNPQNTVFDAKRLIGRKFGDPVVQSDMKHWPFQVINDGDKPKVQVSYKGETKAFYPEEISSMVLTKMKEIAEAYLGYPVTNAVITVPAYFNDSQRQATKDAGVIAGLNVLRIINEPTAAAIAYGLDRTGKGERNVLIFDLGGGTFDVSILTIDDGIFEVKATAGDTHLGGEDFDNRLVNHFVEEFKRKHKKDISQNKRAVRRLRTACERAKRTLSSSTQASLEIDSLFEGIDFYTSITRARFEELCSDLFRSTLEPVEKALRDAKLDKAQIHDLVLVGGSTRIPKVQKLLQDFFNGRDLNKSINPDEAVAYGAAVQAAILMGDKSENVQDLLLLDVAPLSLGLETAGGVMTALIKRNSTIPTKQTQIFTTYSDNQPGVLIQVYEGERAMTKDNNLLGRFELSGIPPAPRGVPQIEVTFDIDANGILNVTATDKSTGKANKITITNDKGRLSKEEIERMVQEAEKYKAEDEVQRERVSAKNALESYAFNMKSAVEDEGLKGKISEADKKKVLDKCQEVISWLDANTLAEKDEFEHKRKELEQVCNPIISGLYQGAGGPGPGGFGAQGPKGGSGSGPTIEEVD
UniProt P03713, sequence (whole entry, looked up): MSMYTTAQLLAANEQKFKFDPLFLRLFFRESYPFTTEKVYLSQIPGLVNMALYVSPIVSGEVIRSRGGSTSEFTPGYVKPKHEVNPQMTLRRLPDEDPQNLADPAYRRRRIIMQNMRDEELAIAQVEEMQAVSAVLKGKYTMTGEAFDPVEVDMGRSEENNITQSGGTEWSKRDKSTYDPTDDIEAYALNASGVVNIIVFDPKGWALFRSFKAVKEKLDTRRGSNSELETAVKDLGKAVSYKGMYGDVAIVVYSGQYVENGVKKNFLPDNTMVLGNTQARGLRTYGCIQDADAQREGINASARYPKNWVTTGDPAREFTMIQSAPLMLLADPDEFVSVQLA
UniProt O43791, sequence (whole entry, unmodified, looked up): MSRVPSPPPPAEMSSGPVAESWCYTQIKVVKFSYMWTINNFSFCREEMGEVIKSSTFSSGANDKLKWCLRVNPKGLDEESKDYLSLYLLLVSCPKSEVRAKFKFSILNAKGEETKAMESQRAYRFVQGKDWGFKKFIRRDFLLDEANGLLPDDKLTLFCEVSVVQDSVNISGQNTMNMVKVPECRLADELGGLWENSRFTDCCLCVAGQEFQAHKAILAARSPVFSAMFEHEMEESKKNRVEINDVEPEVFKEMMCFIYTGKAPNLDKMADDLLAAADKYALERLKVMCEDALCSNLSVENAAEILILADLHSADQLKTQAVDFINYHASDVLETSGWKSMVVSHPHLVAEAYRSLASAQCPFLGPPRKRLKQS
UniProt O26157, sequence (whole entry, looked up): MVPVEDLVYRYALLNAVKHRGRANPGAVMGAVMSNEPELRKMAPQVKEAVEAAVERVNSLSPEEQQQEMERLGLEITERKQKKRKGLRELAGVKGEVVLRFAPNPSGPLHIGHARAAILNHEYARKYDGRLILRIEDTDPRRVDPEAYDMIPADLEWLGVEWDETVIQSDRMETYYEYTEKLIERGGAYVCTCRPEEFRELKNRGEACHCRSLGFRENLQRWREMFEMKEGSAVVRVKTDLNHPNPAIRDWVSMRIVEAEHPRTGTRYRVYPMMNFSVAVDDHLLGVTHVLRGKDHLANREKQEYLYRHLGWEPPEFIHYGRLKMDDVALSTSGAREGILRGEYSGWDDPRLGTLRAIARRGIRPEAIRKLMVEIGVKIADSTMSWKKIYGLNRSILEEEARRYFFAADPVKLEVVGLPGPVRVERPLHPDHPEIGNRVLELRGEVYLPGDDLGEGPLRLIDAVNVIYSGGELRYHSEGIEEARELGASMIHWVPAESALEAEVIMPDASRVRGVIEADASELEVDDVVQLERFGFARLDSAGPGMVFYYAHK
UniProt Q15109, sequence (whole entry, looked up): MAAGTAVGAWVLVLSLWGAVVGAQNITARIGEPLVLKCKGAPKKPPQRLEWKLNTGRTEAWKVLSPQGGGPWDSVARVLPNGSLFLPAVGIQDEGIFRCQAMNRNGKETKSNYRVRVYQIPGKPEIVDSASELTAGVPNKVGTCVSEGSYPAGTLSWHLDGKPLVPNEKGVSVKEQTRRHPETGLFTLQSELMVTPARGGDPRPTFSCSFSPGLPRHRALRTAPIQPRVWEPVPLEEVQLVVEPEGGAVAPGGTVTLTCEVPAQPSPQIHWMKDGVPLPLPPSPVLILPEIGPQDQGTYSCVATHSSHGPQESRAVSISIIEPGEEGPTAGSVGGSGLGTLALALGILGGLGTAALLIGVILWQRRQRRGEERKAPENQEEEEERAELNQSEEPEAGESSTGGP
UniProt O95166, sequence (whole entry, looked up): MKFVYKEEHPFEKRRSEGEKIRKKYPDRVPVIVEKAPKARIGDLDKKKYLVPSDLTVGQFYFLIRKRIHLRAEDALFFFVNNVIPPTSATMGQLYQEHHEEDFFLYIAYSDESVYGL

The Kd of `CKKIPPLGWWNPNTWRY (designed peptide)` is reported as 0.267 µM (ERBB2; SPR; peptide).
The Kd of `CHN2 fragment` is reported as 8 ± 6 µM (NCK1 fragment (Homo sapiens); SPR).
With `[dR][Dmt]KFGGMAPRGFSCLLLLTGEIDLPVKRRA-NH2 (peptide; D-Arg1/Dmt2/C-terminal amide; Dmt = Cc1cc(O)cc(C)c1C[C@H](N)C(=O)O)` the Kd was 55.5 µM (Aβ42, FITC label (UniProt P05067); MST; peptide; 10 min, 25 °C, with: FITC-Aβ42 50 nM).
For `LSQ[MG‑H1]FPKAE (ALB peptide 243-251 (Homo sapiens); MG-H1 at position 4)`, the Kd was 0.035 ± 0.004 µM (AGER V domain 24-125 (Homo sapiens, UniProt Q15109); tryptophan fluorescence titration; peptide; pH 6.5, NaCl 100 mM, single-site).
For `RRRRRRRRRQLDMFKE (scrambled INCENP peptide; N-acetyl, D-Arg9, aminohexanoic linker, C-amide)`, the Kd was over 1 µM (BIRC5 (Homo sapiens, UniProt O15392); QCM; peptide).
`C3 fragment (Homo sapiens)` gave a Kd of 1.6 µM (sbi fragment (Staphylococcus aureus); SPR; NaCl 150 mM).
With `gltX (Methanothermobacter thermautotrophicus, UniProt O26157)` the Kd was 0.04 µM (GatD/GatE, Alexa Fluor 488 label (Methanothermobacter thermautotrophicus); fluorescence polarisation).
`RmS-17, glycosylated (Rhipicephalus microplus) (sequence not shown)` gave a protease inhibition of under 20% (F2 thrombin (Bos taurus); chromogenic substrate hydrolysis, inhibitor; 1 µM).
With `CTCF fragment (Homo sapiens) (sequence not shown)` the Kd was 0.62 µM (T1, STAG2/RAD21 STAG2 80-1060, RAD21 281-420 (Homo sapiens); ITC; one-site fit).
`RmS-6, glycosylated (Rhipicephalus microplus)` gave a protease inhibition of 32.8% (F10 factor Xa (Bos taurus); chromogenic substrate hydrolysis, inhibitor; 1 µM).
For `gpE (phage lambda, UniProt P03713)`, the Kd was 0.127 µM (protein, RED-tris-NTA label on His tag (Escherichia coli, UniProt B7LDL1); MST; apparent).
For `GSKIITALEKGEVEESEYVVITVRNEP (FNIP2 550-576 (Homo sapiens, UniProt Q9P278))`, the Kd was 0.029 ± 0.002 µM (GABARAP (Homo sapiens, UniProt O95166); competition in solution, SPR; peptide; single-site fit).
For `YGREDLDVLGL (ARRB1 residues 63-73)`, the Kd was 1300 µM (RHO Meta II, phosphorylated, retinal (Bos taurus, UniProt P02699); Extra Meta II assay; peptide, native disc membranes; pH 8.0, 0 °C).
With `AHPHSDKLVPPR (designed peptide)` the Kd was 46 µM (ALB (Homo sapiens, UniProt P02768); ITC; peptide; pH 7.4, 25 °C, low c value).
The Kd of `Biotin-GGGSFSIIHTPILPL (peptide; Biotin = O=C1N[C@H]2[C@H](CS[C@H]2CCCCC(=O)*)N1)` is reported as over 0.7 µM (HSPA5 (Homo sapiens, UniProt P11021); flow cytometry; peptide).
With `ENLACDEVTSTTSSSST-NH2 (Puc residues 91-107; not fully specified (N-terminus); N-acetyl, C-amide, fluorescein label)` the Kd was 5.6 µM (SPOP 28-359 L186D/L190D/L193D/I217K (Homo sapiens, UniProt O43791); FP; peptide).
`CD24/Siglec-10 blocking peptide, D-amino acids` gave a Kd of 9.22 µM (CD24 (Homo sapiens, UniProt P25063); MST).
For `{FITC}-QNTDDVQTSF-OH (ACE2 796-805 (Homo sapiens); N-terminal FITC; FITC = O=C1OC2(c3ccc(O)cc3Oc3cc(O)ccc32)c2ccc(NC(=S)*)cc21)`, the Kd was 13.9 µM (PDZK1 2-107 (Homo sapiens, UniProt Q5T2W1); FP; peptide).
With `melittin` the partitioning enthalpy was -22.4 kcal/mol (isothermal titration calorimetry; POPC/POPG LUVs 75:25%; 100 µM, pH 7.0, 60 °C).
The Kd of `B1 (PHB2)` is reported as 1.16 ± 0.5 µM (HSPA1A (Homo sapiens, UniProt P0DMV8); MST).
The Kd of `AR[pT]KQTARKSTG (H3C1 1-12; pT3; pT = C[C@@H](OP(=O)(O)O)[C@H](N)C(=O)O)` is reported as 29.6 ± 5.4 µM (BIRC5 1-142 (Homo sapiens, UniProt O15392); ITC; peptide; pH 7.8, 25 °C, NaCl 50 mM).
`CKTIYYLGYYNPNEYRY (designed peptide)` gave a Kd of 0.0812 µM (ERBB2; SPR; peptide).
For `ACE2/pIgR VHH6 Fc fusion ACE2 , Fc fusion (Homo sapiens)`, the Kd was 0.265 µM (PIGR (Homo sapiens, UniProt P01833); BLI).
`CNSRQTDREDELI` gave an inhibition of 0% (peptide, human polyclonal IgM RF AGER; concentration not given, 5 µg/mL mAb II-481 coated, with: RF at 50% max binding concentration).

For quick reference, copied from above:
With `CTCF fragment (Homo sapiens) (sequence not shown)` the Kd was 0.62 µM (T1, STAG2/RAD21 STAG2 80-1060, RAD21 281-420 (Homo sapiens); ITC; one-site fit).
For `YGREDLDVLGL (ARRB1 residues 63-73)`, the Kd was 1300 µM (RHO Meta II, phosphorylated, retinal (Bos taurus, UniProt P02699); Extra Meta II assay; peptide, native disc membranes; pH 8.0, 0 °C).
